Measurements pooled from the literature.
Each line is one published result; not all experiments were run side by side.
Organism: Staphylococcus aureus

With `CCC1(C)CCN(Cc2cc(N(C)C)c3c(c2O)C(=O)C2=C(O)[C@]4(O)C(=O)C(C(N)=O)=C(O)[C@@H](N(C)C)[C@@H]4C[C@@H]2C3)CC1` the MIC was 1 µg/mL (microbial growth, broth dilution).
With `CNC(CC(C)C)C(=O)NC1C(=O)NC(CC(N)=O)C(=O)NC2C(=O)NC3C(=O)NC(C(=O)NC(C(=O)O)c4cc(O)cc(O)c4-c4cc3ccc4O)C(O)c3ccc(c(Cl)c3)Oc3cc2cc(c3OC2OC(CO)C(O)C(O)C2OC2CC(C)(NC(=O)CCCC[n+]3ccccc3)C(O)C(C)O2)Oc2ccc(cc2Cl)C1O` (stereo not drawn) the MIC was 64 µg/mL (agar dilution; MRSA clinical isolate MRSA3).
`CC(C)C[C@H](NC(=O)[C@H](CC(N)=O)NC(=O)[C@H](CCCNC(=N)N)NC(=O)[C@@H](CC(C)C)NC(=O)[C@H](Cc1ccc(C(F)(F)F)cc1)NC(=O)[C@H](CC(=O)O)NC(=O)[C@H](CCCCN)NC(=O)[C@@H](CC(C)C)NC(=O)[C@H](CCCNC(=N)N)NC(=O)[C@H](CCC(N)=O)NC(=O)[C@@H](NC(=O)[C@@H](CC(C)C)NC(=O)[C@H](CCCNC(=N)N)NC(=O)[C@H](CCCCN)NC(=O)[C@H](Cc1ccc2ccccc2c1)NC(=O)CN)C(C)C)C(=O)N[C@H](C(N)=O)C(C)C` has an MIC of 6.2 µM (broth microdilution; USA300 LAC, MRSA).
For `CC1OCC2OC(OC3C(N)CC(N)C(O)C3OC3OC(CO)C(OC4OC(CN)C(O)C(O)C4N)C3O)C(N)C(O)C2O1` (stereo not drawn), the MIC was 16 to 32 µg/mL (broth microdilution; MRSA isolate AG 045).
The MIC of `[2H]C([2H])([2H])Oc1ccc(-c2cc(C)nc(C)c2)cc1C(C)C#Cc1c(N)nc(N)nc1CC` (racemic) is reported as 0.312 µg/mL (broth microdilution; ATCC 43300; 18 h, 37 °C).
With `CC(C)=CCc1cc([C@@H]2CC(=O)c3ccc(O)c(CC=C(C)C)c3O2)c(O)c(CC=C(C)C)c1O` the MIC was 128 µg/mL (ATCC 25923).
With `S=c1n(CN2CCN(c3ccccn3)CC2)nc(C23CC4CC(CC(C4)C2)C3)n1-c1ccccc1` the MIC was 0.5 µg/mL (two-fold dilution; IFO 3060; 24 h, 36 °C).
`CN(C)c1cc(CNC2CCCC2)c(O)c2c1C[C@H]1C[C@H]3[C@H](N(C)C)C(O)=C(C(N)=O)C(=O)[C@@]3(O)C(O)=C1C2=O` has an MIC of 0.5 µg/mL (microbial growth, broth dilution).
With `CN1/C(=C/C=C/c2cc(-c3ccccc3)cc(-c3ccccc3)[o+]2)C(C)(C)c2ccccc21` the MIC was 0.5 µg/mL (microbial growth, broth dilution; MRSA).
The MIC of `c1ccc(CN2CCOCCOCCN(CCCCCCCCCCCCCCN3CCOCCOCCN(CCCCCCCCCCCCCCN4CCOCCOCCN(Cc5ccccc5)CCOCCOCC4)CCOCCOCC3)CCOCCOCC2)cc1` is reported as 1.5 µM (microbial growth; MRSA).
`CN(C)c1cc(CNCC2CCCCC2)c(O)c2c1C[C@H]1C[C@H]3[C@H](N(C)C)C(O)=C(C(N)=O)C(=O)[C@@]3(O)C(O)=C1C2=O` has an MIC of 1 µg/mL (RN4250, Tet K efflux).
The MIC of `C/C(=N\Nc1nc(C)cs1)c1ccc2c(c1)sc1nc(=O)c(C#N)cn12` is reported as < 39 µg/mL (broth microdilution).
For `NC[C@@H]1O[C@H](O[C@H]2[C@@H](O)[C@H](O[C@@H]3[C@@H](O)[C@H](N)C[C@H](N)[C@H]3O[C@H]3O[C@H](CO)[C@@H](SCCF)[C@H](O)[C@H]3N)O[C@@H]2CO)[C@H](N)[C@@H](O)[C@@H]1O`, the MIC was 8 µg/mL (methicillin-resistant).
The MIC of `Oc1c(Br)cc(Br)c2nc3c(C(F)(F)F)cc(C(F)(F)F)cc3nc12` is reported as 0.05 µM (broth microdilution; MRSA 44).
The MIC of `CCCCCCCCCc1nc2ccc(F)cc2c(=O)n1N` is reported as > 100 µM (broth microdilution; RN6390B).

For quick reference, copied from above:
With `CNC(CC(C)C)C(=O)NC1C(=O)NC(CC(N)=O)C(=O)NC2C(=O)NC3C(=O)NC(C(=O)NC(C(=O)O)c4cc(O)cc(O)c4-c4cc3ccc4O)C(O)c3ccc(c(Cl)c3)Oc3cc2cc(c3OC2OC(CO)C(O)C(O)C2OC2CC(C)(NC(=O)CCCC[n+]3ccccc3)C(O)C(C)O2)Oc2ccc(cc2Cl)C1O` (stereo not drawn) the MIC was 64 µg/mL (agar dilution; MRSA clinical isolate MRSA3).
